Measured values collected from several papers.
Parts stem from different laboratories: compare values within a part only. Changes are numbered by the printed parent chain.

Set 1
Target: ABI1, truncated, D143A, DHFR fusion (Arabidopsis thaliana)
Technique: DHFR PCA, deep sequencing
Medium: yeast
Setting: methotrexate growth selection, single substitutions
Added: (+)-ABA 710 µM
Baseline: wild-type fitted maximum
Direction: higher = stronger binding
Starting sequence: PYL1, truncated, DHFR fusion (Arabidopsis thaliana); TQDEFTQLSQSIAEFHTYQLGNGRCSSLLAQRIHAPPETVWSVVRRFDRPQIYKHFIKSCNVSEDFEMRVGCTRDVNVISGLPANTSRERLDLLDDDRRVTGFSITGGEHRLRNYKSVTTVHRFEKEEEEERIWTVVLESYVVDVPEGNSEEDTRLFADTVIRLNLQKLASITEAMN; partner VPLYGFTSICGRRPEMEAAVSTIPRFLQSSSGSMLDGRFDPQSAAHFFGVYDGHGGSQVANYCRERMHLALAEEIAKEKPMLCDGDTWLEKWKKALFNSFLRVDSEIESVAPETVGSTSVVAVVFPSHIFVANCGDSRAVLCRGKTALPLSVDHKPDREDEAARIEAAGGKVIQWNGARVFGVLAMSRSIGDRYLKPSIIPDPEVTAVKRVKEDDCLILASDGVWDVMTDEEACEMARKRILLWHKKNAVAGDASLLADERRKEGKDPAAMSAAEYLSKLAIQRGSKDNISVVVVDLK
Variant	relative binding score
R46I	84%
K126I	107%
E67V	102%
I172G	62%
R113V	110%
E152V	95.9%
E14G	87%
N114A	93.9%
E152P	89.5%
V43G	0.571%
R69M	98.9%
R113G	97.7%
F103M	89.2%
R98K	109%
Q7M	110%
S63T	107%
C72W	89.8%
E130L	109%
I162R	9.72%
Y115I	0.525%
T17W	83.6%
I172P	-9.61%
I105N	74.8%

Set 2
Target: CEBPA, bZIP domain (human)
Technique: DHFR protein complementation
Medium: yeast
Setting: single substitutions, most at no-binding floor
Baseline: wild-type JUN-FOS pair
Direction: higher = stronger binding
Starting sequence: JUN, bZIP domain (human); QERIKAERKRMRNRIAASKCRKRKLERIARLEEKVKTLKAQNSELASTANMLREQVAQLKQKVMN; partner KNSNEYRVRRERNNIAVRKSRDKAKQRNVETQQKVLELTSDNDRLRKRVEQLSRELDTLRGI
Variant	binding fitness
S43Q	-1.43 natural log
L38R	-1.49 natural log
E33G	-1.51 natural log
Q41W	-1.39 natural log
R53S	-1.33 natural log
I28T	-1.35 natural log
A29H	-1.06 natural log
E54D	-1.43 natural log
T48G	-1.47 natural log
T48D	-1.51 natural log
L45R	-1.48 natural log
A46E	-1.3 natural log
A46N	-1.4 natural log
L45N	-1.54 natural log

Set 3
Target: RING finger protein unkempt homolog, zinc fingers 1-6, GST-SBP tag (UNK, Homo sapiens, UniProt Q9C0B0, residues 30-357)
Chain of UniProt Q9C0B0 (30-357, looked up): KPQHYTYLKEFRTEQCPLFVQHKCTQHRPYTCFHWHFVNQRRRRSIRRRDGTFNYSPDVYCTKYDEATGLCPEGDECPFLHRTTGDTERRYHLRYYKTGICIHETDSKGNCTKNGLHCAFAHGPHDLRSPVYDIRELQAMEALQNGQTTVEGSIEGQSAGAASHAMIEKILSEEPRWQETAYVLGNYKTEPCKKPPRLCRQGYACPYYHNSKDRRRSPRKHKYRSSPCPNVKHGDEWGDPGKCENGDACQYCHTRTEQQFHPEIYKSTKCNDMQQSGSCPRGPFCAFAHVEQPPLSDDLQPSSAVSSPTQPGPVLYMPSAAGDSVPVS
Technique: RNA Bind-n-Seq
Form: RNA
Medium: in vitro
Concentration: not given
Setting: RNA with constant flanks, human and mouse sites, ends assumed
Baseline: input RNA pool
Direction: higher = stronger binding
All sequences stand within: GGGAGUUCUACAGUCCGACGAUC … CAACAGAGGAUUGAGCAUCA
Strand	bound/input enrichment [ratio]
UUUGAUUUUCUUAUCCGGCUGCUCCCCUAUCAGACCUCAUCUUUUUUAAUUUUAUUUUUUGUUUACCUCCCUCCAUUCAUUCACAUGCUCAUCUGAGAAGACUUAAGUUCUUCCAGCUUU	41.7
UACAGGGGUGCAUACCAUCUUGCAGUGGCUUGGCUGACAUUGCCUCUUUGUCCUGGCCUCUAGUUUUCUUUUGAUAUUUCAUAGCUCUCCUUAGUUUACUCUGCCUGGAUAGAAAGUUGA	35
GUAUUGGUGAACAACGUGUUUUAUUUCACACAACGCGUAGUGGACAAGCUUUGGCAAGGCAUGUUCAACAAAGAAUCUAAACUUCUUAUAGAUUUUAUCAUUCAACUCAUUGCACAGUCG	0.575
UUCUCCAUAUACAACUUGAAUGAAGCUCUGAAUCAGGGAGAGACUGUGGAUCUGGAUGCCUUGAUGGCUGAUCUUUGCUCUAUAGAGCAGGAGCUCAGCAGCAUUGGUUCAGGAAACAGU	0.209
GCCUGAGGAACCAGCCAUGUCUCUGCUGCCCCUUCAGUGAUGCCAACCUUGGGAGAUGCCCUCAUCCUGUACCUGCAUCUGGUCCUGGGGGUGGCAGGAGUCCUCCAGCCACCAGGCCCC	0.249
AUGGAAAAGGAUUCUCUGCCUCGCUUUGUGCGCUCUGAGUUUUAUCAGGAGUUAAUCAAGUAGUAAUUUAGCCAGGCUAUGAAAUCAUCCUGUGAGUUAUUUCCUCCAUAAUAACCCUGC	0.541
AAGCAGAUACAGAUGGCUGCCUGCUGCUCGGCUUUGCUUUUGCUUUUCCCACCGUGUUUUCAUCUUUGUUCACUUGAGGCUUUCCCCAGCUGGUGUGUGCAGGACAGUUCAUGGUAAUGU	0.196
GUCAUAUUUUUUUAAGAUUAUGUUUUUAUGUUCUUGGGCUAAUGGAGCAACACUGCCCCCUGACACAGUGACCACCCAAGCAGCAAAGCCGCCCUCGGCUCCUUCCUUCUUGCCUUGGGA	1.13

Set 4
Target: CCNE2, cyclin fold, Cln2 fusion (human)
Technique: yeast growth competition, sequencing
Medium: yeast
Setting: strong parent motif
Baseline: not given
Direction: higher = stronger binding
Starting sequence: RBL2 docking peptide (human); STTRRRLFVENDS; partner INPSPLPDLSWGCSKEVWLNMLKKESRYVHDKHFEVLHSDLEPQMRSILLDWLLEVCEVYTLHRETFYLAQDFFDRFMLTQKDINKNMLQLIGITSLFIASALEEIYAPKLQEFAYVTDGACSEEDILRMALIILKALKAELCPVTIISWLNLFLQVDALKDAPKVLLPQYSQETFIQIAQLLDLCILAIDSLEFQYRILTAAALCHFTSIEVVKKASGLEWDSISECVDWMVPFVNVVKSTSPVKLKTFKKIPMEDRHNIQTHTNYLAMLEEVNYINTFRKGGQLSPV
Variant	normalised enrichment score
YTTRRRLFVENDS [S1Y]	4.01
STTRWRLFVENDS [R5W]	0.626
STIRRRLFVENDS [T3I]	4.3
STTRRRSFVENDS [L7S]	-0.0945
STTFRRLFVENDS [R4F]	1.85
SWTRRRLFVENDS [T2W]	4.13
STTRRRLFVPNDS [E10P]	3.07
STTRRRLFGENDS [V9G]	2.32
STTRRMLFVENDS [R6M]	1.59
ATTRRRLFVENDS [S1A]	3.61
STTRRRLFVENRS [D12R]	2.97
STTRRRLFVEDDS [N11D]	5.72
STTRRKLFVENDS [R6K]	3.57
STTRERLFVENDS [R5E]	-0.078
STTRRRNFVENDS [L7N]	-0.639
STTRRRLSVENDS [F8S]	0.665
STTRRTLFVENDS [R6T]	0.396
STTRVRLFVENDS [R5V]	-0.23
STTRRRLFVCNDS [E10C]	2.45
STTRRHLFVENDS [R6H]	0.331
STTRFRLFVENDS [R5F]	0.185
STTRRRLFVEIDS [N11I]	3.04
STTRPRLFVENDS [R5P]	1.18
STFRRRLFVENDS [T3F]	4.78
STTRRQLFVENDS [R6Q]	3.71

Repeated from above (set 1):
Variant	relative binding score
V43G	0.571%
R69M	98.9%
R113G	97.7%
F103M	89.2%
R98K	109%
Q7M	110%
S63T	107%
C72W	89.8%
E130L	109%
